Experimental data of several laboratories.
Each line is one published result; not all experiments were run side by side. Values joined by “and” are separate records of one study, mostly repeats; a detail may differ. ± marks the error that the study gave.
CHRM1: Muscarinic acetylcholine receptor M1 (CHRM1, Homo sapiens, UniProt P11229)
CHRM3: Muscarinic acetylcholine receptor M3 (CHRM3, Homo sapiens, UniProt P20309)
Hypoxanthine-guanine phosphoribosyltransferase: Hypoxanthine-guanine phosphoribosyltransferase (Trypanosoma cruzi, UniProt Q4DGA3)
CASP3: Caspase-3 (CASP3, Homo sapiens, UniProt P42574)
Drd2: D(2) dopamine receptor (Drd2, Rattus norvegicus, UniProt P61169)
CHRM5: Muscarinic acetylcholine receptor M5 (CHRM5, Homo sapiens, UniProt P08912)
PTPN1: Tyrosine-protein phosphatase non-receptor type 1 (PTPN1, Homo sapiens, UniProt P18031)
SLC10A2: Ileal sodium/bile acid cotransporter (SLC10A2, Homo sapiens, UniProt Q12908)
MAOB: Amine oxidase [flavin-containing] B (MAOB, Homo sapiens, UniProt P27338)

SMILES | target | test | system | setting | Ki
CCCCOc1ccc(C(=O)OCC[N+]2(C)CC=CCC2)cc1 (centres unmarked) | CHRM1 | ligand displacement, radioligand |  | cell membranes | 2 µM
O=C(OC1CCN(CCOCCOCCN2CCC(OC(=O)C(c3ccccc3)c3ccccc3)CC2)CC1)C(c1ccccc1)c1ccccc1 | CHRM3 | ligand displacement, radioligand |  |  | 2.29 µM
O=c1[nH]c(O)nc2c([C@@H]3N[C@H](COP(=O)(O)O)[C@@H](O)[C@H]3O)c[nH]c12 | Hypoxanthine-guanine phosphoribosyltransferase |  |  |  | 36.7 ± 0.67 µM
CC(=O)NCC(=O)N[C@@H](CCCCN)C(=O)N[C@H](C=O)CC(=O)O | CASP3 | enzyme activity, inhibitor, fluorescence |  | pH 7 | > 100 µM
O=c1[nH]cnc2c([C@@H]3N[C@H](COP(=O)(O)O)[C@@H](O)[C@H]3O)c[nH]c12 | Hypoxanthine-guanine phosphoribosyltransferase |  |  |  | 0.18 ± 0.03 µM
CN1CCC=C(c2nsnc2OCCCN2CCN(CCCCC3CCN(CC(=O)N4c5ccccc5NC(=O)c5ccccc54)CC3)CC(N)C2)C1 (centres unmarked) | CHRM3 | ligand displacement, radioligand |  |  | 0.0617 µM
CC(C)C[C@H](NC(=O)[C@H](CC(C)C)NC(=O)[C@H](Cc1c[nH]cn1)NC(=O)[C@H](CC(C)C)NC(=O)[C@@H](NC(=O)[C@H](CCC(=O)O)NC(=O)[C@H](CO)NC(=O)[C@H](Cc1c[nH]c2ccccc12)NC(=O)[C@H](C)NC(=O)[C@@H](N)[C@@H](C)O)C(C)C)C(=O)N[C@@H](CO)C(=O)N[C@@H](CCCNC(=N)N)C(=O)NCC(=O)NCC(=O)NCC(=O)N[C@@H](CO)C(=O)N[C@@H](CCCCN)C(N)=O | ATP2B4 (Homo sapiens, UniProt P23634) | enzyme activity, inhibitor | human erythrocyte ghosts | 37 °C | 45 ± 4 µM
Clc1cc(OCCCN2CCN(c3cccc4sccc34)CC2)ccc1CN1CCCCC1 | Drd2 | cell-free assay, radioligand |  |  | 0.155 µM
CC(C)=CCC/C(C)=C/CC/C(=C/COP(=O)(O)OP(=O)(O)O)C(F)(F)F | SC1 (Streptomyces citricolor, UniProt G5EKM9) | inhibitor, radioligand inhibition |  | with: [3H]FDP | 3.9 ± 0.2 µM
CN1CCC=C(c2nsnc2OCCCN2CCN(CCCCC3CCN(CC(=O)N4c5ccccc5NC(=O)c5ccccc54)CC3)CC2)C1 | CHRM5 | ligand displacement, radioligand |  |  | 0.0339 µM
NC(=O)CCNC(=O)[C@H]1O[C@@H](n2cnc3c(N)ncnc32)[C@H](O)[C@@H]1O | ADORA1 (Homo sapiens, UniProt P30542) | ligand displacement, radioligand |  | cell membranes | 0.54 µM
C[C@@H]1O[C@@H](O[C@@H]2C(=O)c3c(O)cc(O)cc3O[C@@H]2c2ccc(O)cc2)[C@H](O)[C@H](O)[C@H]1O | PTPN1 | enzyme activity, inhibitor |  |  | 3.2 µM
CNC(=O)C1CCN(c2cc(C)c(F)cc2NC(=O)c2ccc(-c3cc(O)ccc3C)c(C)c2)CC1 | FGR (Homo sapiens, UniProt P09769) | cell-free assay, TR-FRET |  |  | 0.0018 µM
O=C(COc1ccc2ccccc2c1)NCc1ccc(OP(=O)(O)O)c(OP(=O)(O)O)c1 | Signal transducer and activator of transcription 5A, SH2 (Homo sapiens, UniProt P42229) | ligand displacement, FP |  |  | 9.3 µM
CC(C)C[C@@H](C=O)NC(=O)[C@H](Cc1c[nH]c2ccccc12)NC(=O)[C@H](CCCCN)NC(=O)[C@H](CO)NC(=O)[C@H](CO)NC(=O)OCc1ccccc1 | Prostate-specific antigen (Homo sapiens, UniProt P07288) | enzyme activity, inhibitor, fluorescence |  | pH 7.8 | 155 µM and > 100 µM
CC(=O)N[C@H](C(=O)N[C@@H](CC(=O)O)C(=O)N[C@H](CCN)C(=O)N[C@H](C(=O)N[C@H](C=O)CC(=O)O)C(C)C)C(C)C | CASP3 | enzyme activity, inhibitor, fluorescence |  | pH 7 | 2.29 µM
Clc1cc(OCCCN2CCN(c3cccc4sccc34)CC2)ccc1CN1CCOCC1 | Drd2 | cell-free assay, radioligand |  |  | 0.0856 µM
CCC(=O)NCc1cc(C(=O)NCCN2CCC(OC(=O)C(c3ccccc3)c3ccccc3)CC2)cc(C(=O)NCCN2CCN(CCCCC3CCN(CC(=O)N4c5ccccc5NC(=O)c5ccccc54)CC3)CC2)c1 | CHRM3 | ligand displacement, radioligand |  |  | 0.0302 µM
OC[C@H]1O[C@@H](n2cnc3c(Nc4cccc(Br)c4)ncnc32)[C@H](O)[C@@H]1O | ADORA3 (Homo sapiens, UniProt P0DMS8) | ligand displacement, radioligand |  | cell membranes | 0.078 µM
CN(CCON=C(c1ccc(C(F)(F)F)cc1)C(F)(F)F)Cc1ccccc1 (mixture of isomers) | Sigmar1 (Rattus norvegicus, UniProt Q9R0C9) | binding |  |  | 0.0337 ± 0.00264 µM
O=C1Nc2ccccc2N(C(=O)CN2CCC(CCCCNCCCCC3CCN(CCCN4C(=O)CCc5ccccc54)CC3)CC2)c2ccccc21 | CHRM5 | ligand displacement, radioligand |  |  | 0.0933 µM
C[C@H](CCC(=O)OCc1ccccc1)[C@H]1CC[C@H]2[C@@H]3[C@H](O)C[C@H]4C[C@H](OC(=O)CCC(=O)O)CC[C@]4(C)[C@H]3CC[C@]12C | SLC10A2 | transporter uptake, inhibitor, radiometric |  |  | 6.73 µM

SMILES | target | test | system | setting | Ki
CCC(=O)NCc1cc(C(=O)NCCN2CCN(CCCCC3CCN(CC(=O)N4c5ccccc5NC(=O)c5ccccc54)CC3)CC2)cc(C(=O)NCCN2CCN(CCCCC3CCN(CC(=O)N4c5ccccc5NC(=O)c5ccccc54)CC3)CC2)c1 | CHRM1 | ligand displacement, radioligand |  |  | 0.00295 µM
CC[C@H](C)[C@H](NC(C)=O)C(=O)N[C@H](C(=O)N[C@H](C(=O)N[C@@H](CCN)C(=O)N[C@H](C=O)CC(=O)O)C(C)C)[C@@H](C)O | CASP3 | enzyme activity, inhibitor, fluorescence |  | pH 7 | 9.12 µM
NS(=O)(=O)c1ccc(Nc2nc3nccc(-c4ccc5ccccc5c4)n3n2)cc1 | CA4 (Homo sapiens, UniProt P22748) | enzyme activity, inhibitor, stopped-flow |  |  | 8.2 µM
CC[C@H](C)[C@H](NC(=O)[C@H](CCC(N)=O)NC(=O)[C@H](CCC(=O)O)NC(=O)[C@H](CCC(=O)O)NC(=O)[C@H](CCCCN)NC(=O)[C@@H]1CCCN1C(=O)[C@H](CC(C)C)NC(=O)[C@H](CO)NC(=O)[C@H](CO)NC(=O)[C@H](CC(C)C)NC(=O)[C@@H](NC(=O)[C@H](C)NC(=O)[C@H](CO)NC(=O)[C@H](CCCNC(=N)N)NC(=O)CNC(=O)CNC(=O)[C@@H](N)CCCNC(=N)N)C(C)C)C(=O)NCC(N)=O | MC1R (Homo sapiens, UniProt Q01726) |  | HEK-293T transfected | 2 h, 37 °C, with: Eu-NDP-MSH | > 5 µM
CC(=O)N[C@H](C(=O)N[C@@H](CC(=O)O)C(=O)N[C@H](C(=O)N[C@H](CCCCN)C(=O)N[C@H](C=O)CC(=O)O)C(C)C)C(C)C | CASP3 | enzyme activity, inhibitor, fluorescence |  | pH 7 | > 100 µM
C[C@H](CCC(=O)O)[C@H]1CC[C@H]2[C@@H]3[C@H](OC(=O)c4ccccc4)C[C@H]4C[C@H](O)CC[C@]4(C)[C@H]3CC[C@]12C | SLC10A2 | transporter uptake, inhibitor, radiometric |  |  | 5.79 µM
NCc1cc(C(=O)NCCN2CCC(OC(=O)C(c3ccccc3)c3ccccc3)CC2)cc(C(=O)NCCN2CCN(CCCCC3CCN(CC(=O)N4c5ccccc5NC(=O)c5ccccc54)CC3)CC2)c1 | CHRM1 | ligand displacement, radioligand |  |  | 0.00525 µM
C[C@H](CCC(=O)N[C@@H](CCC(=O)Nc1ccc(O)cc1)C(=O)O)[C@H]1CC[C@H]2[C@@H]3[C@H](O)C[C@@H]4C[C@H](O)CC[C@]4(C)[C@H]3CC[C@]12C | SLC10A2 | taurocholate uptake, inhibitor | ASBT-MDCK | 10 min, with: taurocholate 2.5 µM | 7.18 µM
CC1(C)NC(N)=Nc2nc3c(Cl)cc(Cl)cc3n21 | Bifunctional dihydrofolate reductase-thymidylate synthase, DHFR domain (Trypanosoma cruzi, UniProt Q27793) | enzyme activity, competitive inhibitor |  | with: dihydrofolate 60 µM, NADPH 100 µM | 2.29 µM
CC(=O)N[C@@H](CC(=O)O)C(=O)N[C@H](C(=O)N[C@@H](CCCNC(=N)N)C(=O)N[C@H](C=O)CC(=O)O)[C@@H](C)O | CASP3 | enzyme activity, inhibitor, fluorescence |  | pH 7 | 0.0813 µM
Cc1cc(O)c2c(c1)C(=O)c1cc(O)c(O)c(O)c1C2=O | MAOB | enzyme activity, inhibitor |  |  | 2.41 µM
CCCCOc1ccc(C(=O)OCCN2CC=CCC2)cc1 | CHRM3 | ligand displacement, radioligand |  | cell membranes | 7.76 µM
O=C1Nc2ccccc2N(C(=O)CN2CCC(CCCCN3CCC(OC(=O)C(c4ccccc4)c4ccccc4)CC3)CC2)c2ccccc21 | CHRM5 | ligand displacement, radioligand |  |  | 0.0537 µM
CC(C)=CCCC(C)=CCc1c(O)ccc2cc(-c3cc(O)c4ccoc4c3)oc12 | PTPN1 | enzyme activity, inhibitor |  |  | 6.22 µM
COc1ccc(CCCN[C@@H]2CCC[C@H]2CN[C@@H]2CCC[C@H]2CNCCCCN[C@@H]2CCC[C@H]2CN)cc1 | MAOB | enzyme activity, inhibitor |  |  | > 500 µM
N#Cc1c(N)nc(SCc2ncc[nH]2)c(C#N)c1-c1ccc(O)cc1 | Adenosine receptor A2a, Δ40 C-terminal truncation (ADORA2A, Homo sapiens, UniProt P29274) | binding |  |  | 0.018 µM
CC[C@H](C)[C@H](NC(C)=O)C(=O)N[C@H](C(=O)NCC(=O)N[C@@H](CCCCN)C(=O)N[C@H](C=O)CC(=O)O)[C@@H](C)O | CASP3 | enzyme activity, inhibitor, fluorescence |  | pH 7 | 1.78 µM
C[C@H](CCC(=O)N[C@@H](CCC(=O)Nc1cncc(F)c1)C(=O)O)[C@H]1CC[C@H]2[C@@H]3[C@H](O)C[C@@H]4C[C@H](O)CC[C@]4(C)[C@H]3CC[C@]12C | SLC10A2 | taurocholate uptake, inhibitor | ASBT-MDCK | 10 min, with: taurocholate 2.5 µM | 6.84 µM
CC(C)(C)COCCCCCN1C[C@H](O)[C@@H](O)[C@H](O)[C@H]1CO | GBA3 (Homo sapiens, UniProt Q9H227) | enzyme activity, inhibitor |  |  | 27.6 µM
Cc1nc(N=Nc2ccc(S(=O)(=O)O)cc2S(=O)(=O)O)c(COP(=O)(O)O)c(C=O)c1O | Ectonucleoside triphosphate diphosphohydrolase 1 (Rattus norvegicus, UniProt P97687) | enzyme activity, inhibitor |  | cell membranes | 46 µM
Cc1cc(CN2CCCC2)ccc1OCCCN1CCN(c2cccc3sccc23)CC1 | Drd2 | cell-free assay, radioligand |  |  | 0.0941 µM
CC(=O)N[C@H](C(=O)N[C@H](C(=O)N[C@@H](CCN)C(=O)N[C@H](C=O)CC(=O)O)C(C)C)[C@@H](C)O | CASP3 | enzyme activity, inhibitor, fluorescence |  | pH 7 | 37.2 µM
